Measurements collected from several papers.
Every numbered part comes from another study and shows a few of its results, in no order. Positions count from the first letter of the parent shown.

Set 1 — method: protein-binding microarray; form: double-stranded DNA, one strand shown; sample: in vitro; tested at: 250 nM; setting: 60-bp whole probe; with: salmon DNA 0.4 mg/ml; reference: random background probes; direction: higher = stronger binding; endpoint: log fluorescence; constant ends, left off below: GCCTAGCAC … GTCTTGATTCGCTTGACGCTGCTG
Target: Interferon regulatory factor 5, full length, phosphomimetic (IRF5, Homo sapiens, UniProt Q13568-2, residues 1-514, K96S/S451D/S453D/S456D/S462D)
GACGGTTTCGGGACTCGGGACGTGCTA: 4.6 z-score
TTAGGGCTGGACTTTCGGTTAGTGCTA: 8.78 z-score
TTAGGACTGTGGACTGGGTTAGTGCTA: -0.41 z-score
TTCGGTTTCGGACTGGGTTAGTGCTAG: 6.56 z-score
AAGTTTTTATTTTCTGAATGGTGCTAG: 1.95 z-score
GAGGGTATCCTACTGCTGACGTGCTAG: -0.31 z-score
TTAGGACAGGGTTTCGGTTAGTGCTAG: 7.07 z-score
TTCCAAATGCCCTCTCCATACGTGCTA: 0.0516 z-score
GACGGTATCCGTCTCGGGACGTGCTAG: 0.012 z-score
GACGGTATCGGACTGTGGACGTGCTAG: 0.754 z-score
GACCATCTCAGTATCGAGACGTGCTAG: 1.67 z-score
TCTCTGTTCTTTTCAGTCCCGTGCTAG: 1.63 z-score
TTAGGACTGCGTTTCCTTTAGTGCTAG: -0.123 z-score
TCCATTTTCAGAATTTACTTGTGCTAG: 1.86 z-score
TTAGGTTTCCTTCTCCTTCAGTGCTAG: 1.05 z-score
CTCCCCCTCAGATCTGCCGTCGTGCTA: -0.432 z-score
CACTTTTCCTACATCAGCTGGTGCTAG: 1.09 z-score
GACGGTTCCCTTTACCTGACGTGCTAG: 0.0209 z-score
TTAGATATCAGTTTCGAGTAGTGCTAG: 7.69 z-score

Set 2 — method: universal PBM; form: double-stranded DNA, one strand shown; sample: in vitro; tested at: 600 nM; direction: higher = stronger binding; endpoint: E-score
Target: Sal-like protein 4, full length isoform A (SALL4, Homo sapiens, UniProt Q9UJQ4, residues 1-1053)
Chain of UniProt Q9UJQ4 (whole entry, looked up): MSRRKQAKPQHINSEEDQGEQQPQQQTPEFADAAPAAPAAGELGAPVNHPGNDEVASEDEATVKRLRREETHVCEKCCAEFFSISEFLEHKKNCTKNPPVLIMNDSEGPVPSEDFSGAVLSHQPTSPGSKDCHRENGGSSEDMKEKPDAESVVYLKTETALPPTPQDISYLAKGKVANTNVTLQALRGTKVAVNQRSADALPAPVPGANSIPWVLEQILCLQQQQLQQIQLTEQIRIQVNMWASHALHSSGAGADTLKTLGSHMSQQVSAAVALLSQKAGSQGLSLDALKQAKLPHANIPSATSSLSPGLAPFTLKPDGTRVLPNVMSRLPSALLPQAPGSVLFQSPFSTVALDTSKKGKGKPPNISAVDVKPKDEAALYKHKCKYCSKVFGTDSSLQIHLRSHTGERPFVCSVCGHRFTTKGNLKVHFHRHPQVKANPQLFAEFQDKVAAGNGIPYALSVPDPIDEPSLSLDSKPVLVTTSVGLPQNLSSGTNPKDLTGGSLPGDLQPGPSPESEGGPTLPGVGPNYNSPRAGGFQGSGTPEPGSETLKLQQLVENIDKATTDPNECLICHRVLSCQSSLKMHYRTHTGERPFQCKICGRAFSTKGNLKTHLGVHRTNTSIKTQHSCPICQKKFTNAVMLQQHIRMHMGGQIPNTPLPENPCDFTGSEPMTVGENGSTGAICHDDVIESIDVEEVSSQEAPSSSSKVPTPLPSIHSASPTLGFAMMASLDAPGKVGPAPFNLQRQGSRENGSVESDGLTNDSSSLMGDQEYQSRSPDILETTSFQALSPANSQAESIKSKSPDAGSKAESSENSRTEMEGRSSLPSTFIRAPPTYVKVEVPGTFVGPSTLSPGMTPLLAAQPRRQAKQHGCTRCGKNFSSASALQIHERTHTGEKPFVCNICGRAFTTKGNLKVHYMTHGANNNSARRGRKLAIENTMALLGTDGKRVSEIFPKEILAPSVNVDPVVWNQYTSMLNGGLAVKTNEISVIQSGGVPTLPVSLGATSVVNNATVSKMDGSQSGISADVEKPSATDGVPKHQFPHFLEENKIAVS
Setting: 8-mer, flanks averaged, mean of replicates
CCACTTCC: -0.036
CCTGCTCC: -0.205
AGAATTCG: 0.0762
TCGCCGAA: 0.00187
ACTCGCGA: 0.0194
AGCGGGTC: -0.365
ATGCGATG: -0.0269
AAGGGGCC: -0.392
CTAGCTCC: -0.186
AAGATTGG: 0.155
ACACTTCA: 0.161
GCTGGGAA: -0.136
CTTTCCAC: 0.013
ATCACCCC: -0.0508
TCGGTGAA: -0.0729
ATTCAACG: 0.172
AATTCAGC: 0.00053
CGTCGTGA: -0.193
CGGATGAC: -0.177
CTTAGCCA: -0.00294
CACAGGGA: -0.253
CCCAGCGA: -0.288
CGCACATC: -0.156
AGCTCTTG: -0.234
AGCCGACG: -0.226

Set 3 — target: CCNE2, cyclin fold, Cln2 fusion (human); method: yeast growth competition, sequencing; sample: yeast; setting: weak parent motif; reference: not given; direction: higher = stronger binding; endpoint: normalised enrichment score
Starting sequence: SLBP docking peptide (human); ARYKRKLLINDFG; partner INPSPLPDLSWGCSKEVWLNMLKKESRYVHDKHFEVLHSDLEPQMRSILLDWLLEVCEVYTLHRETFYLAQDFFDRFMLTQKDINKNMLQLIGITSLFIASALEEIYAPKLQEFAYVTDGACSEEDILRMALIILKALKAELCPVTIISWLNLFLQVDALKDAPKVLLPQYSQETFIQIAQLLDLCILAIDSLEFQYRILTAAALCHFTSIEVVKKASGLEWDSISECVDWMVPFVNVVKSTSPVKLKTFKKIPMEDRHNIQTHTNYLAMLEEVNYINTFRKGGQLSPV
G13N: 0.98
R5F: -0.254
L8T: 0.53
K4E: 0.0779
N10A: 0.636
D11I: 0.939
R5W: -0.566
D11K: 1.53
G13V: 1.45
K6Q: 1.3
L7P: 0.429
F12Y: 1.47
A1P: 0.783
A1W: 1.16
L8P: 0.555
K6D: 0.254
L8E: 1.21
D11P: 1.33
N10E: 1.5
I9D: 0.12
G13I: 0.782
K6F: -0.23
D11L: 1.8

Set 4 — method: RNA Bind-n-Seq; form: RNA; sample: in vitro; tested at: 365 nM; reference: no-protein control; direction: higher = stronger binding; endpoint: RBNS enrichment (R)
Target: RNA binding protein fox-1 homolog 2, RRM domain, GST-SBP tag (RBFOX2, Homo sapiens, UniProt O43251-10, residues 100-194)
Setting: natural RNA segment, single round, ends assumed
Constant ends, left off below: GGGAGUUCUACAGUCCGACGAUC … UGGAAUUCUCGGGUGCCAA
Residues (chain): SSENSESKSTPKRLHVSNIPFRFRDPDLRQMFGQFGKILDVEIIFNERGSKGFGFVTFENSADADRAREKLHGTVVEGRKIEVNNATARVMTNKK
UCUAUCCUCAACCUACAUCCAGAUCCUAUGUGCUGCUUGCACAGAGGCCUUUGGCUUUUGACCCAGGAGGGCCGCGAGGCUGGAGCUGCCCUGUCUUUCAUUGAGCCUUA: 0.409
UGAAGAUAUGUGUGUGUGUAUAUUCAACUUUGAUGGCUUCCGGAUCUGUAAGAUUGUAUGCUGUAUAUACCGUUCUAUUGAGAAACAUGUACACAUGUCUGUCUACUGUG: 5.98
UAGCCAGGGUCUGUUCUUGUGGACCAGAGCCAGCCUAGUCAUUAUUUGCUGUCGGGUUUCCAGUUUCACCGUGUGUUAGGGUGAGGGAUGAUUGUAAAAUUUGCUCCUCA: 0.198
UGAGUGGCGGAGGAGCCUCAGCGCACUGAAGGCCCAUGGCGCCCGGGUUGGUUUUUCCUUUCUUCUUCAUCUUCCUUCUUUUUAAAAGUCAACGAGAGCCUUUGCCGACU: 0.576
AAAUGCUACAAUGACUUCCUAUUAAAGGUUCAAUAUUUACACAUUCUUAUUGGUUGAUAUUACCACAUGAAAUAUUGCCAGACCAAGAUACCUAAACUCAUGAUGUCUGU: 0.479
UGUGGAGUUGUUCUUAUCACCUUGCUUCAGAUGUUACUUUGGCGUCCUCCACCAGUUCUCCAUGCGCACCUCUGCAUGUCCGGCACUAGAAUCCCUGAACACUACUUCAC: 1.9
CAUUAGUGGUAACUGGUUUAAAAAACAAAGACUGUAAGCCUGUGUGUGCCACUGUUUGCUUCAACAGUAUAUCCUAAUAAGCCUCACCUAUUUAAUCCAAUGAGUUUUAA: 0.491
CAAUAAUGUUUCCAGAUCGAAUUUCCUCAUAGAGAAAAAAAAAAAGGUGUGCCUUGUGUCUGUGCUUCUCCGCUCUCUGAAAGGAUGGAUGGAUCUGAAGUUCUCAGCCC: 0.501

Mixed results
PhoQ, residues 284 288 289 292 302 303 MLMVEA  fold induction (PhoP, residues 12 14 15 18 19 STWGI (Escherichia coli, UniProt P23836); Sort-seq, refers to: YFP reporter; E. coli; PhoQ-PhoP variant library, with: 10 µM Mg2+; reference: high Mg2+ state, higher = stronger signaling): 13.7
